Assay results collected from several papers.
Compare with care: the assays were run in different laboratories. Values joined by “and” are separate records of one study, mostly repeats; a detail may differ. ± gives the spread as reported.

| SMILES | cell line | test | test system | conditions | how to read | endpoint | value |
| --- | --- | --- | --- | --- | --- | --- | --- |
| COc1ncc(-c2ccc3nccc(-c4ccnnc4)c3c2)cc1NS(=O)(=O)c1ccc(F)cc1F | SNU-1040 |  |  | 0.33 µM, 72 h, 100% DMSO | relative to: vehicle | cell growth | 63.1% |
| COc1ccc(C#N)cc1-c1c[nH]c2ncc(-c3cncc(C(=O)N(C)C)c3)cc12 | Ba/F3 BCR-ABL wild type | cell proliferation |  | 72 h |  | GI50 | 0.59 ± 0.0366 µM |
| O=c1[nH]nc(OCCCc2ccc(Cl)cc2)c(NCc2cccnc2)c1Br | HEK-293T | RNA-seq GSEA, refers to: Hallmark apical junction |  | concentration not given | direction not given | normalized enrichment score | -1.59 |
| CCn1cc(-c2cc(Cn3ccnc3)cc3c2CCN([C@H](c2cc(OC)ccn2)C2CC2)C3=O)c(C(F)(F)F)n1 | BICR16 | cell growth |  | 120 h |  | EC50 | 8.08 µM |
| Cn1cc(Nc2nccc(-c3ccc4c(c3)CN(C3COC3)CC[C@H]4NC(=O)c3cn(C(C)(C)C)nn3)n2)cn1 | human B cells |  |  | 100 nM, 64 h, non-stimulation-regulated genes, together with: anti-IgM |  | number of downregulated genes | 930 |
| Cn1cc(-c2ccc(-c3cncc(Cl)c3N3CCC4(CCNC4=O)CC3)cc2)cn1 | COLO 205 | gene expression, microarray, refers to: G0S2 mRNA |  | concentration not given, 2 h | relative to: untreated cells | log2 fold change | 7.36 |
| CCCCCN1C[C@H](O)[C@@H](O)[C@H](O)[C@@H]1CO | Sandhoff disease patient fibroblasts | glycosphingolipid lowering, LC-MS/MS, refers to: GM3 d18:1/20:0 | human |  |  | IC50 | 0.641 µM |
| CC(C)NCC(O)c1ccc(O)c(O)c1 (centres unmarked) | mouse ventricular cardiomyocytes |  |  | dose not given, 0.007 s |  | sarcomere length | 1.8 µm |
| CC(C)(c1ccc(O)cc1)c1ccc(O)cc1 | HepG2 spheroids | Hoechst flow cytometry |  | 40 µM, 24 h |  | S phase cells | 8.86 ± 2.2% |
| COc1cc2ncnc(Nc3ccc(Oc4ccccc4)cc3C)c2cc1OC.O=C(O)C(F)(F)F | SW-620 (KRAS G12V) | resazurin |  | concentration not given, 72 h, together with: trametinib | direction not given | Bliss synergy score | 153% |
| Nc1cccc2c1C(=O)N(C1CCC(=O)NC1=O)C2=O (centres unmarked) | RPMI-8226 | flow cytometry, refers to: CD154 |  | concentration not given | relative to: comparator compound alone | surface marker level | 54.2% |
| c1ccc2[nH]ccc2c1 | HCT-8 | RNA-seq, refers to: SPC24 |  | concentration not given |  | mRNA level, LS mean | 11.9 counts per million |
| CCCCCCCC(=O)Oc1c(C)c(O)c(C(=O)/C=C/c2ccccc2)c(OC)c1C | SH-SY5Y | SRB |  |  | relative to: normal over SH-SY5Y IC50 | selectivity index | 1.39 |
| O=C(/C=C/C=C/C=C/C1CCCCC1)NC1=C[C@@](O)(/C=C/C=C/C=C/C(=O)NC2=C(O)CCC2=O)[C@@H]2O[C@@H]2C1=O | NCI-H1581 | cell growth, CellTiter-Glo |  | 78 h |  | GI50 | 14.3 µM |
| CCn1cc(-c2cc(Cn3ccoc3=N)cc3c2CCN([C@@H](C)c2cc(OC)ccn2)C3=O)c(C(F)(F)F)n1 | RMUGS | cell growth |  | 120 h |  | EC50 | > 30 µM |
| Cc1cc(Nc2ncc(Cl)c(Nc3ccccc3S(=O)(=O)C(C)C)n2)c(OC(C)C)cc1C1CCNCC1 | CLB-GE | phosphoproteomics LC-MS/MS, refers to: AKT3 phosphorylation |  | 200 nM, 60 min | relative to: untreated | log2 fold change | -1.61 |
| CCCCCCCCCCCCCCCCCCOc1ccc(CC(=O)OCC[N+]2(C)CCCCC2)cc1 | NSCLC panel (nine cell lines) |  |  | 10 µM |  | mean growth inhibition | 7.19% |
| Nc1ncnc2nc(-c3ccc(N4CCOCC4)nc3)cc(-c3cccc(Br)c3)c12 | activated human T cells |  | human | 3.16 nM |  | T cell proliferation | 1.9% and 0.7% and 0% |
| CCCCc1nc(Cl)c(CO)n1Cc1ccc(-c2ccccc2-c2nn[nH]n2)cc1 | human PBMC | RNA-seq, refers to: DNER mRNA |  | 10 µg/mL, 24 h | relative to: untreated control | log2 fold change | 2.4 |
| COc1ccc(-n2nc(C(C)=O)s/c2=N\N=C(/C)c2ccc(NC(=O)c3ccc(C)cc3)cc2)cc1 | MCF7 |  |  | 10 µM |  | toxicity | 97.1% |

Some of these lines once more:
| SMILES | cell line | test | test system | conditions | how to read | endpoint | value |
| --- | --- | --- | --- | --- | --- | --- | --- |
| CCCCc1nc(Cl)c(CO)n1Cc1ccc(-c2ccccc2-c2nn[nH]n2)cc1 | human PBMC | RNA-seq, refers to: DNER mRNA |  | 10 µg/mL, 24 h | relative to: untreated control | log2 fold change | 2.4 |
